Results collected from several papers.
Compare with care: the assays were run in different laboratories. “And” joins repeats or separate records; there may be more than shown. Numbers after ± are the reported error.
FFAR4: Free fatty acid receptor 4 (FFAR4, Homo sapiens, UniProt Q5NUL3)
TOP2A: DNA topoisomerase 2-alpha (TOP2A, Homo sapiens, UniProt P11388)
Kir3.1/Kir3.2: Kir3.1/Kir3.2 (Homo sapiens, UniProt P48051+P48549)
GAP50: Glideosome-associated protein 50 (GAP50, Plasmodium falciparum, UniProt Q8I2X3)
NADH dehydrogenase [ubiquinone] iron-sulfur protein 7, mitochondrial/NADH dehydrogenase [ubiquinone] iron-sulfur protein 2, mitochondrial/MT-ND1: NADH dehydrogenase [ubiquinone] iron-sulfur protein 7, mitochondrial/NADH dehydrogenase [ubiquinone] iron-sulfur protein 2, mitochondrial/MT-ND1 (Homo sapiens, UniProt O75251+O75306+P03886)
T1: ssDNA, aptamer; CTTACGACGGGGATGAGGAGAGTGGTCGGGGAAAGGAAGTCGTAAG

For `O=c1[nH]c(NCCc2ccc(Br)cc2)c(Br)c(=O)[nH]1`, the agonist effect was 0% (FFAR4; agonist, β-arrestin recruitment; CHO cells; 10 µM; baseline: 30 µM TUG-891).
With `O=c1nc(SCc2cc(F)cc(C(F)(F)F)c2)nc(SCc2ccc3nc(OCCN4CCOCC4)ccc3c2)[nH]1` the linear DNA was 0% (TOP2A; DNA cleavage; 15.6 µM, replicate 2).
The EC of `O=C(NCc1ccc(CNS(=O)(=O)c2ccccc2)cc1)c1ccccc1` is reported as 1 nM (CXCR4 (Homo sapiens, UniProt P61073); binding, inhibitor, competitive binding; MDA-MB-231; together with: biotinylated TN14003).
For `CCN1CCC[C@H]1CNC(=O)c1c(O)c(Cl)cc(Cl)c1OC`, “log2 fold change” read 0.037 (Probable G-protein coupled receptor 153 (GPR153, Homo sapiens, UniProt Q6NV75); β-arrestin recruitment, TANGO luminescence, refers to: GPR153; concentration not given; baseline: basal luminescence).
The remaining activity of `CCCCc1c(-c2ccc(O)cc2)[nH]c2nccnc12` is reported as 96.1 ± 13.2% (TRPM8 (Homo sapiens, UniProt Q7Z2W7); antagonist; HEK293; 5 µM; baseline: control).
With `CCc1cc(NC(=O)COc2ccc(Cl)cc2Cl)n(C2CCOCC2)n1` the Emax was 92% (Kir3.1/Kir3.2; thallium flux, activator; HEK293; baseline: standard compound).
`Nc1nc2c(ncn2[C@@H]2O[C@H](COP(=O)(O)O)[C@@H](O)[C@H]2O)c(=O)[nH]1` has a reaction velocity of 0.103 µM/s and 0.12 µM/s and 0.0998 µM/s (GUK1 (Homo sapiens, UniProt Q16774); enzyme activity, NADH-coupled; 250 µM, together with: KCl 10 mM).
For `O=c1cc(NCCCCCCCO)[nH]c(=O)[nH]1`, the agonist effect was 0% (FFAR4; β-arrestin recruitment; CHO; 10 µM; baseline: 30 µM TUG-891).
`COc1ccc(Oc2ccc([C@@H](C)N(C)c3ncc4c(N)nc(N)nc4n3)cc2)cc1` has a koff of 0.363 s⁻¹ (GAP50; binding, surface plasmon resonance; 1:1 binding model).
`Oc1ccccc1-c1n[nH]cc1-c1ccnc2ccccc12`: “log2 fold change” 0.04 (Serine/threonine-protein kinase PKH2 (Candida albicans, UniProt Q5A3P6); kinase binding, MIB/MS competition; Candida albicans lysate; 1 µM; baseline: DMSO, negative = stronger binding).
The remaining activity of `COc1ccc(F)cc1C(=O)NCc1ccc(-c2nn([C@@H](C)C(F)(F)F)c(N)c2C(N)=O)cc1` is reported as 101 ± 1.3% (Cyclin-dependent kinase 19, with cyclin C (CDK19, Homo sapiens, UniProt Q9BWU1); kinase activity, inhibitor, HotSpot radiometric; 100 nM, together with: ATP 10 µM).
For `NC(=O)NOCCCCCCCCCCCCCCCCCCCC[P+](c1ccccc1)(c1ccccc1)c1ccccc1.O=C([O-])C(F)(F)F`, “oxygen consumption rate” read 0 ± 1.43% (NADH dehydrogenase [ubiquinone] iron-sulfur protein 7, mitochondrial/NADH dehydrogenase [ubiquinone] iron-sulfur protein 2, mitochondrial/MT-ND1; complex I-dependent respiration, Seahorse XF96; HCT-116; 10 µM, 24 h; baseline: control).
`O=c1nc(SCc2cc(F)cc(C(F)(F)F)c2)nc(SCc2ccc3nc(Cl)ccc3c2)[nH]1` — result for “mean linear DNA”: 0% (TOP2A; DNA cleavage; 15.6 µM).
With `CC[C@H](C)[C@H](NC(=O)[C@H](C)NC(=O)[C@H](C)NC(=O)[C@@H](NC(=O)[C@H](CC(=O)O)NC(=O)[C@H](CS)NC(=O)[C@H](CC(C)C)NC(=O)[C@H](CCC(=O)O)NC(=O)[C@H](C)NC(=O)[C@H](CC(=O)O)NC(=O)[C@H](CO)NC(=O)[C@H](C)NC(=O)[C@H](CC(N)=O)NC(=O)[C@H](C)NC(=O)[C@H](CC(C)C)NC(=O)[C@H](C)NC(=O)[C@H](CCC(=O)O)NC(=O)[C@H](CCC(=O)O)NC(=O)[C@H](CC(C)C)NC(=O)[C@H](CCC(=O)O)NC(=O)[C@@H]1CCCN1C(=O)[C@H](CCC(=O)O)NC(=O)[C@H](CC(C)C)NC(=O)[C@@H](NC(=O)[C@@H](NC(=O)[C@@H](N)CO)C(C)C)[C@@H](C)O)[C@@H](C)CC)C(=O)N[C@@H](CC(C)C)C(=O)NCC(=O)N[C@@H](CCSC)C(=O)N[C@@H](Cc1c[nH]cn1)C(=O)N[C@H](C(=O)N[C@@H](CC(C)C)C(=O)N[C@@H](CCSC)C(=O)N[C@@H](CO)C(=O)N[C@@H](CC(N)=O)C(=O)N[C@@H](CCC(N)=O)C(=O)O)[C@@H](C)O` the affinity decrease was about 2.5 fold (Tropomyosin alpha-1 chain (Tpm1, Rattus norvegicus, UniProt P04692, K15N); circular dichroism, refers to: Kd; Tpm1.1 K15N mutation; baseline: WT peptide over K15N peptide).
With `CCCCC[C@H](O)/C=C/[C@H]1C(=O)C[C@H](O)[C@@H]1C/C=C\CCCC(=O)O` the activation was 88.4% (PTGDR (Homo sapiens, UniProt Q13258, D72N); agonist; 1.25 µM).
With `O=C(NC1CCC1)c1ccc2nc(-c3cccc(NS(=O)(=O)NCCN4CCCCC4)c3)cn2c1` the protein level was 93% (Protein ENL (MLLT1, Homo sapiens, UniProt Q03111); degrader, immunoblot, refers to: MLLT1; 10 µM, 0 h; baseline: DMSO control).
For `Nc1ncnc2c1ncn2[C@@H]1O[C@H](COP(=O)(O)OP(=O)(O)OP(=O)(O)O)[C@@H](O)[C@H]1O`, the Kd was 746 nM (T1, ssDNA, aptamer; ITC).
`NC(=O)NOCCCCCCCCCC[P+](c1ccccc1)(c1ccccc1)c1ccccc1.O=C([O-])C(F)(F)F` — result for “oxygen consumption rate”: 38.5 ± 4.8% (NADH dehydrogenase [ubiquinone] iron-sulfur protein 7, mitochondrial/NADH dehydrogenase [ubiquinone] iron-sulfur protein 2, mitochondrial/MT-ND1; complex I-dependent respiration, Seahorse XF96; HCT-116; 12.5 µM, 24 h; baseline: control).
For `O=c1cc(NCCCCCCO)[nH]c(=O)[nH]1`, the agonist effect was 1% (FFAR4; β-arrestin recruitment; CHO; 10 µM; baseline: 30 µM TUG-891).
The binding of `C[C@@H](O)[C@@H](CO)NC(=O)[C@@H](CCCNC(=N)N)NC(=O)[C@@H]1CCCN1C(=O)[C@@H]1CSSC[C@H](NC(=O)[C@H](Cc2ccccc2)NC(=O)CN2CCN(CC(=O)O)CCN(CC(=O)O)CCN(CC(=O)O)CC2)C(=O)N[C@@H](Cc2ccc(O)cc2)C(=O)N[C@@H](Cc2ccccc2)C(=O)N[C@@H](CCC(N)=O)C(=O)N[C@@H](CC(N)=O)C(=O)N1` [gallium-68 labelled] is reported as 6.5% and 4% and 4.9% (AVPR1B (Homo sapiens, UniProt P47901); receptor binding, radioimmunoassay; concentration not given, together with: vasopressin V1b 15.6 nM).
The activation of `O=c1cc(NCc2cccc3ccccc23)[nH]c(=O)[nH]1` is reported as 1% (FFAR4; agonist, β-arrestin recruitment; CHO cells; 10 µM).
For `NC(=O)NOCCCCCCCCCCCC[P+](c1ccccc1)(c1ccccc1)c1ccccc1.O=C([O-])C(F)(F)F`, “oxygen consumption rate” read 2.39 ± 1.86% (NADH dehydrogenase [ubiquinone] iron-sulfur protein 7, mitochondrial/NADH dehydrogenase [ubiquinone] iron-sulfur protein 2, mitochondrial/MT-ND1; complex I-dependent respiration, Seahorse XF96; HCT-116; 7.5 µM, 24 h; baseline: control).
The Km of `CC(=O)N[C@H]1[C@H](Oc2ccc([N+](=O)[O-])cc2)O[C@H](CO)[C@@H](O)[C@@H]1O` is reported as 170 ± 10 µM (beta-N-acetylglucosaminidase, soil Bacillus sp.; substrate, p-nitrophenol release; pH 6.1, 37 °C, Sephadex G-200 purified).
With `N=C(N)c1ccc(OCCCCCOc2ccc(C(=N)N)cc2)cc1` the koff was 0.498 s⁻¹ (GAP50; binding, surface plasmon resonance; 1:1 binding model).
For `OC[C@H]1OC(O)[C@H](O)[C@@H](O)[C@@H]1O` (stereo partly shown), the maximal inhibition was about 50% (Hexokinase-3 (HK3, Homo sapiens, UniProt P52790); enzyme activity, substrate inhibitor, coupled G6PDH).
`Cn1cc(-c2ccc(-c3cncc(Cl)c3N3CCC4(CCNC4=O)CC3)cc2)cn1` — result for “log2 fold change”: 2.81 (COLO 205; gene expression, microarray, refers to: EDN2 mRNA; concentration not given, 6 h; baseline: untreated cells).
`O=C(COc1ccc(Cl)cc1Cl)Nc1nn(-c2ccccc2)c2cccnc12`: activity “inactive” (Kir3.1/Kir3.2; activator, thallium flux; HEK293; concentration not given).
For `CCN1CCN(c2cc(N3CCN(CC)CC3)nc(NCCNc3ccnc4cc(Cl)ccc34)n2)CC1`, the activation was 2.12 fold (Nuclear receptor subfamily 4 group A member 2, LBD (Homo sapiens, UniProt P43354); reporter gene, Gal4 hybrid reporter; 20 µM; baseline: vehicle).

For quick reference, copied from above:
The Km of `CC(=O)N[C@H]1[C@H](Oc2ccc([N+](=O)[O-])cc2)O[C@H](CO)[C@@H](O)[C@@H]1O` is reported as 170 ± 10 µM (beta-N-acetylglucosaminidase, soil Bacillus sp.; substrate, p-nitrophenol release; pH 6.1, 37 °C, Sephadex G-200 purified).
With `O=c1nc(SCc2cc(F)cc(C(F)(F)F)c2)nc(SCc2ccc3nc(OCCN4CCOCC4)ccc3c2)[nH]1` the linear DNA was 0% (TOP2A; DNA cleavage; 15.6 µM, replicate 2).
For `O=c1cc(NCCCCCCCO)[nH]c(=O)[nH]1`, the agonist effect was 0% (FFAR4; β-arrestin recruitment; CHO; 10 µM; baseline: 30 µM TUG-891).
With `CCc1cc(NC(=O)COc2ccc(Cl)cc2Cl)n(C2CCOCC2)n1` the Emax was 92% (Kir3.1/Kir3.2; thallium flux, activator; HEK293; baseline: standard compound).
